# Measured values collected from several papers.
# Protocols differ between the studies behind these lines. ± marks the error that the study gave.
SMILES,medium,tested at,time,intrinsic clearance
COc1ccc2nc(C)cc(OCC(=O)Nc3cc(C)cc(C)c3)c2c1,mouse liver microsomes,,,> 30 mL/min/g
COC(=O)C(O)=CC(=O)c1ccccc1Br,mouse liver microsomes,0.5 µM,30 min,3.2 ± 0.7 mL/min/g
CCc1ccc([C@@H]2C[C@H](C(F)(F)F)n3ncc(C(=O)NCc4ccc(OC)cc4)c3N2)cc1,human liver microsomes,,,1.8 mL/min/g
Cc1cnc(N)c(S(=O)(=O)N(C)CC(=O)Nc2ccn(C)c(=O)c2)c1,human liver microsomes,,,13 µL/min/mg
CNc1nc(SC)nc2ccccc12,mouse liver microsomes,,,> 30 mL/min/g
CN(C(=O)Cc1ccc(Cl)c(Cl)c1)C(CN1CCCC1)c1ccccc1 (stereo in doubt),mouse liver microsomes,,,6.8 mL/min/g
O=C(OCc1ccccc1)C(O)=CC(=O)c1ccccc1Br,mouse liver microsomes,0.5 µM,30 min,15.3 ± 6.1 mL/min/g
Cc1ccc2nc(C(F)(F)F)c(C(=O)NCc3cccc(Cl)c3)n2c1,mouse liver microsomes,,,> 30 mL/min/g
O=C(Cc1ccc(Cl)c(Cl)c1)NCCN1CCCC1,human liver microsomes,,,0.6 mL/min/g
c1cc2c(s1)CCOC21CCN(Cc2ccc3c(c2)OCCO3)CC1,mouse liver microsomes,,,34.9 mL/min/g
COc1ccc(C2(C(=O)Nc3ccc(C)c(-c4cccc(C(=O)O)c4)c3)CC2)cc1,human liver microsomes,,,36.1 mL/min/kg
Cc1ccc2nc(C)c(C(=O)NCc3ccc(C(F)(F)F)cc3)n2c1,human liver microsomes,,,46 ml/min/g protein
COc1ccc(NC(=O)CN(C)S(=O)(=O)c2cc(C)cnc2N)cn1,human liver microsomes,,,6 µL/min/mg
Cc1ccc2nc(C)c(C(=O)NCc3cccs3)n2c1,human liver microsomes,,,3.9 mL/min/g
NC1CCN(C(=O)OC2CCCC3(C2)OOC2(O3)C3CC4CC(C3)CC2C4)CC1 (stereo not shown),mouse liver microsomes,,,155 µL/min/mg
NC1CC1c1ccc(NC(=O)c2cccc(NC(=O)OCc3ccccc3)c2)cc1 (stereo not shown),human liver microsomes,1 µM,,12.2 ± 1.7 µL/min/mg protein
CN(C(=O)CC1CCCCC1)[C@@H]1CCCC[C@H]1N1CCCC1,mouse liver microsomes,,,5.2 mL/min/g
COc1ccc(NC(=O)CN(C)S(=O)(=O)c2cc(C)cnc2N)cc1Cl,human liver microsomes,,,115 µL/min/mg
CN1CCN([C@@H]2CCCC[C@H]2N(C)C(=O)Cc2ccc(Cl)c(Cl)c2)CC1,human liver microsomes,,,3.4 mL/min/g
Cc1cnc(N)c(S(=O)(=O)N(C)CC(=O)Nc2ccc(=O)n(C)c2)c1,human liver microsomes,,,-18 µL/min/mg
Cc1cccc(-c2nc(Nc3ccncn3)c3c(C)csc3n2)n1,human liver microsomes,,,7.2 mL/min/g
COc1ccc(NC(=O)CN(C)S(=O)(=O)c2cc(C)cc3cn[nH]c23)cc1Cl,human liver microsomes,,,> 768 µL/min/mg
O=C(O)CCn1c(=O)oc2cc(Cl)c(Cl)cc21,human liver microsomes,,,< 0.5 mL/min/g
Cc1cc(S(=O)(=O)N(C)CC(=O)Nc2ccn(C)c(=O)c2)c2[nH]ncc2c1,human liver microsomes,,,-11 µL/min/mg
COc1ccc2nc(C)cc(OCC(=O)Nc3ccccc3OC)c2c1,human liver microsomes,,,5.1 mL/min/g

# Repeated from above:
SMILES,medium,tested at,time,intrinsic clearance
O=C(OCc1ccccc1)C(O)=CC(=O)c1ccccc1Br,mouse liver microsomes,0.5 µM,30 min,15.3 ± 6.1 mL/min/g
COc1ccc(NC(=O)CN(C)S(=O)(=O)c2cc(C)cnc2N)cc1Cl,human liver microsomes,,,115 µL/min/mg
